Assay results of several laboratories.
Every numbered part comes from another study and shows a few of its results, in no order.

Block 1
Target: Prothrombin, mature alpha-thrombin (F2, Homo sapiens, UniProt P00734)
Technique: aptamer microarray, sandwich
Form: DNA with 2'F-ANA
Sample: in vitro
Tested at: 200 nM
Setting: whole 15-mer aptamer, many near background
Together with: Cy3 exosite-II aptamer, 400 nM
Reading: higher = stronger binding
Oligonucleotide: GGTTGGTGTGGTTGG
`2'F-ANA at 1 2 5 8 12 15` — result for “mean fluorescence intensity”: 115 a.u.
Under “mean fluorescence intensity”, `2'F-ANA at 4 11 12` is recorded as 458 a.u.
`2'F-ANA at 5 8 11 12 14`: “mean fluorescence intensity” 47.1 a.u.
`2'F-ANA at 1 2 5 6 7 10 12 14 15`: “mean fluorescence intensity” 47.1 a.u.
`2'F-ANA at 2 3 5 6 7 8 12 14 15` — result for “mean fluorescence intensity”: 64.3 a.u.
`2'F-ANA at 1 2 6 7 8 9 11 12 14 15` — result for “mean fluorescence intensity”: 70.8 a.u.
`2'F-ANA at 2 3 6 8 9 11 12 13 14 15` — result for “mean fluorescence intensity”: 328 a.u.
`2'F-ANA at 1 2 3 6 9 14` — result for “mean fluorescence intensity”: 63.5 a.u.
`2'F-ANA at 3 6 7 9 12 13` — result for “mean fluorescence intensity”: 1050 a.u.
For `2'F-ANA at 1 3 4 6 7 8 9 10 12 13 15`, “mean fluorescence intensity” read 77.9 a.u.
`2'F-ANA at 1 3 5 7 11 12 13 15`: “mean fluorescence intensity” 117 a.u.
For `2'F-ANA at 1 2 5 6 7 9 13 15`, “mean fluorescence intensity” read 51.2 a.u.
`2'F-ANA at 1 3 4 5 6 8 9 11 12 13 15`: “mean fluorescence intensity” 69.2 a.u.
Under “mean fluorescence intensity”, `2'F-ANA at 1 2 3 4 6 10 11 12 13 14 15` is recorded as 52.5 a.u.
For `2'F-ANA at 1 3 4 6 7 9 12`, “mean fluorescence intensity” read 355 a.u.
Under “mean fluorescence intensity”, `2'F-ANA at 1 2 7 8 9 10 12 13 15` is recorded as 70.4 a.u.
`2'F-ANA at 1 3 4 7 13`: “mean fluorescence intensity” 141 a.u.
`2'F-ANA at 1 2 3 9 10 12 14` — result for “mean fluorescence intensity”: 57 a.u.
For `2'F-ANA at 2 3 4 5 7 11 12 13 14`, “mean fluorescence intensity” read 53.5 a.u.
For `2'F-ANA at 1 3 4 5 6 7 11 13`, “mean fluorescence intensity” read 46.3 a.u.
`2'F-ANA at 4 5 7 9 10 13 14` — result for “mean fluorescence intensity”: 72.7 a.u.
`2'F-ANA at 2 3 5 7 9 12 13 14`: “mean fluorescence intensity” 60.8 a.u.
`2'F-ANA at 1 2 3 6 8 10 12 13 14` — result for “mean fluorescence intensity”: 53.9 a.u.
Under “mean fluorescence intensity”, `2'F-ANA at 1 4 5 6 7 8 10 15` is recorded as 48.4 a.u.

Block 2
Target: RNA binding protein fox-1 homolog 2, RRM domain, GST-SBP tag (RBFOX2, Homo sapiens, UniProt O43251-10, residues 100-194)
Technique: RNA Bind-n-Seq
Form: RNA
Sample: in vitro
Tested at: 365 nM
Setting: natural RNA segment, single round, ends assumed
Relative to: no-protein control
Reading: higher = stronger binding
Target sequence (chain): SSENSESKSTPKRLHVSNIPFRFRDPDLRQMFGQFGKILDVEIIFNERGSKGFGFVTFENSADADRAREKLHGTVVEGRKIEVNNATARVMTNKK
`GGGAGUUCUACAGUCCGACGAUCUUCAAAAGAGGGCUUUCCAGGGCUCAGCUCCCAACCAGCUGUUAGGACCCCACCCUUUUGCCUUUAUUGUCGACGUGACUCACCAGACGUCGGGGAGAGAGAGCAGUCAGUGGAAUUCUCGGGUGCCAA` — result for “RBNS enrichment (R)”: 0.322.
`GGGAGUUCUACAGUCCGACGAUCUCUCUUUCAAGUGCCUUAAUCCGAGCCAGCAGGGCCUUCUGCUUGCCUGCUGCCAUACUGUAUGUAGGAAAGUGUUCUGUGGCUGCUUUGUGUCAAGAAAAGAGCAGUCAUGGAAUUCUCGGGUGCCAA`: “RBNS enrichment (R)” 0.506.
`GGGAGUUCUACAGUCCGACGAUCAGGUGGGUGUGGCCUGUGUUUUCCCUUCUGUUCUUUCUGCCUGUACUGGAUCUGUUAUUUUCAGGGAAACAGGCCCCAGGGCCCCCCUGAGCCUCACCCUAAGCCCUUAGUGGAAUUCUCGGGUGCCAA` — result for “RBNS enrichment (R)”: 1.98.
Under “RBNS enrichment (R)”, `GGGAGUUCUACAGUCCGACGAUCAUCUUUACAGUUCCUCGGGAAAAUGUGAAUGUGCUGCGUUUUGUUUUCUUUACUGUAUGAAAACAGGAAAAUAAAAGAGAAAUUUAGAAAAUACAGCUCAUUACAAUAAAUGGAAUUCUCGGGUGCCAA` is recorded as 0.355.
`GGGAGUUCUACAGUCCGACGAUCGGGGAUCCAAGCUGCUUGAGGGGGUCAACCUUGGACCAAAGUUGCCUUAAGCCUGUGGUAAAAGGGCUUCAGGGAAGGUAAGUGGGCCACCUGCUGGAAGCUGCCAGCUGUGGAAUUCUCGGGUGCCAA`: “RBNS enrichment (R)” 1.43.
`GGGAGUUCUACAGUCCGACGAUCUAAAUUUAUAAAUAUAUUCAGGAGUUGGAAUGUUGUAGUUACCUACUGAGUAGGCGGCGAUUUUUGUAUGUUAUGAACAUGCAGUUCAUUAUUUUGUGGUUCUAUUUUACUGGAAUUCUCGGGUGCCAA` — result for “RBNS enrichment (R)”: 0.693.
`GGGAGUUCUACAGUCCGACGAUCUGCACCUGUGGACAGUGGGUGGGGCACUACUCCCCACUCAGAGCACAAAUGCAACCCCUCCCCUACAAAUCCCAUCCUGAGCCAUUGCAGGGGUAGGGAAGCUCACCCCUUGGAAUUCUCGGGUGCCAA` — result for “RBNS enrichment (R)”: 0.333.
`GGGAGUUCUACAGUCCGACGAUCCUUCUCACAUGAGGUCAACUGCUAAUGCAAUCUCUACACUUCAAAAAGCACUGAUCGUUCUCCAGUUCUUGCCAAGAUCAUCCCAAGUUGGAUAUCAUCAAAACUAUCUUUGGAAUUCUCGGGUGCCAA`: “RBNS enrichment (R)” 0.311.
`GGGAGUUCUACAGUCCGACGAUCAUUGUUCUUAGAUGAUGGAGUCCAUGCAGUUUCUUAGAAAUCGGUCUCAGUGCAUGCUGUGCUUUUUCACAUUUGCUCUGGGUUAUCUGGGAAGUAUCAGGUUCUGGGAGUGGAAUUCUCGGGUGCCAA` — result for “RBNS enrichment (R)”: 0.476.
`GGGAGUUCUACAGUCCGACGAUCGCAGUCAUUCUCUCUGUACAUCAGAGCUUAGUUCGAAUGGAAUCAUGAAAAUCUCUGAUUCUGACCUCCUAAGGAAAAAUGAAACCCAGAGGAUGUGGUCAUACAGGAUGUGGAAUUCUCGGGUGCCAA`: “RBNS enrichment (R)” 0.304.
For `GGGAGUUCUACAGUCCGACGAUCAGCAAGAUUUUGGAAGCAUUCAUAUUUCCUUUUUAAAAUGUAUUCCUUUGUGUUCAACAGUUAAUCAAAACCAGAGAGUCUAGGGCAGCCUCUCUGAUGUUGUCAAUGAUUGGAAUUCUCGGGUGCCAA`, “RBNS enrichment (R)” read 0.719.
`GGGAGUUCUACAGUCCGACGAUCCUUUUUGUAUUUUUUAGUAGAGAUGGGGUUUACCAUGUUGGCCAGGCUAGUCUCAAACUCCUGACCUAGUGAUGCACCCACCUUGGCCUCCCAAAGUGUUGGGAUUACAGUGGAAUUCUCGGGUGCCAA` — result for “RBNS enrichment (R)”: 0.48.

Block 3
Target: Histone acetyltransferase KAT6A, winged helix 2, GST fusion (KAT6A, Homo sapiens, UniProt Q92794, residues 85-181)
Technique: protein binding microarray
Form: double-stranded DNA, one strand shown
Sample: in vitro
Tested at: not given
Setting: 8-mer, flanks averaged, mean of 2 arrays, mostly near background
Relative to: not given
Reading: higher = stronger binding
Construct (chain): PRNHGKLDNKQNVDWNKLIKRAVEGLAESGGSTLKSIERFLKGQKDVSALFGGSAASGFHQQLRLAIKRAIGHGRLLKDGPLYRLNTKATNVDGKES
For `GTCCGAGA`, the E-score was 0.186.
For `ACTAGCAA`, the E-score was 0.00788.
`ACCCATCT` has an E-score of -0.0565.
The E-score of `GCACGAAA` is reported as 0.00305.
`CCAGCCTC` gave an E-score of -0.0994.
`ATCACAAC` has an E-score of 0.0503.
`CGGAACTA` gave an E-score of 0.166.
With `ATGCGCAT` the E-score was 0.183.
`GGCTTGGA` gave an E-score of -0.233.
`CCGTCAAA` has an E-score of -0.0977.
`AACGACAA` has an E-score of 0.164.
The E-score of `CTCAACAA` is reported as 0.21.
With `GTATCTGA` the E-score was -0.104.
For `TCGCCCCA`, the E-score was 0.00365.
With `ACATGCAA` the E-score was -0.0634.
The E-score of `CGCGTTAA` is reported as -0.0117.
`ATAGCCCG` has an E-score of -0.00456.
The E-score of `AAGTGTAA` is reported as -0.333.
For `AACCCGGC`, the E-score was 0.251.
The E-score of `CTGAGCAC` is reported as 0.0481.
With `CTAATTAA` the E-score was 0.0561.
The E-score of `AAGAGTGG` is reported as -0.14.
`CGCTCCGC` has an E-score of 0.254.
For `ACGCTAAA`, the E-score was 0.00297.
With `CCACTGAA` the E-score was 0.0395.

Block 4
Target: Ras GTPase-activating protein-binding protein 1, full length (G3BP1, Homo sapiens, UniProt Q13283)
Chain of UniProt Q13283 (whole entry, looked up): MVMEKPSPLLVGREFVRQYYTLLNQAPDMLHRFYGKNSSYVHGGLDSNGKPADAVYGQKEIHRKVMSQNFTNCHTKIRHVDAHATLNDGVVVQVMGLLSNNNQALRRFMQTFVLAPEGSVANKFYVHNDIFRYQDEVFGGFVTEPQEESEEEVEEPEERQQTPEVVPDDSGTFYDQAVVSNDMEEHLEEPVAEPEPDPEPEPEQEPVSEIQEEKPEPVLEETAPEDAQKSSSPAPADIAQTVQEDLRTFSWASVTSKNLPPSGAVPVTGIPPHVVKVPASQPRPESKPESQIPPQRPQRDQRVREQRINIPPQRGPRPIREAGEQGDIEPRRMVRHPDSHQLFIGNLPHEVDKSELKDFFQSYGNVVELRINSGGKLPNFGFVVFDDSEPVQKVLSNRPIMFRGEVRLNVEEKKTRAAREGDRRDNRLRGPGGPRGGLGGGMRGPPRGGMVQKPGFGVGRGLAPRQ
Technique: RNA Bind-n-Seq
Form: RNA
Sample: in vitro
Tested at: 200 nM
Setting: whole 134-nt RNA, ends assumed
Together with: 150 mM LiCl
Relative to: input library
Reading: higher = stronger binding
All molecules: 7-deaza-guanosine replaces G
`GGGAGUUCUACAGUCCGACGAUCCACAGACAACACGCACUCACACAGACACAGAGGGAAGGGGUUGGGAUGGGGACAGGGUGCACAGCAGGGCGGGGUAGGACCCCAGCCCCUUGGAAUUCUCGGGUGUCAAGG` has a log2 enrichment of 0.194.
`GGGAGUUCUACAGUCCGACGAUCAAGUCCUGUGCUACACAUCGUAUGUACCGAAUCGGGGUUUUUGGGGAGGGGAGGGGAAAGUAUUAUGUUACGCCGUUCGGAUCUGCACUUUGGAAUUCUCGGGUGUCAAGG` gave a log2 enrichment of 0.856.
With `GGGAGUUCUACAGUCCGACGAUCAAGUCCUGUGCUACACAUCGUAUGUACCGAAUCGGGUUUGGGAGGGAAAAAAAGGGAAAGUAUUAUGUUACGCCGUUCGGAUCUGCACUUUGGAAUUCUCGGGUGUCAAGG` the log2 enrichment was 0.272.
`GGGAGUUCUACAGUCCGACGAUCAAGUCCUGUGCUACACAUCGUAUGUACCGAAUCGGGUUUUUUUGGGAAAGGGUGGGAAAGUAUUAUGUUACGCCGUUCGGAUCUGCACUUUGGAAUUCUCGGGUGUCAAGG` has a log2 enrichment of -0.89.
`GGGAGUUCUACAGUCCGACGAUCCACAGACAACACGCACCCACACAGACACAGAGGGAAGGGGUUGGGAUGGGGACAGGGUGCACAGCAGGGCGCGGUAGGACCCCAGCCCCUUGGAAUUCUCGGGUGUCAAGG` gave a log2 enrichment of 0.458.
`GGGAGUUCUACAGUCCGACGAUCUCCUGUGCUACACAUCGUAUGUACCGAAUCGGGGCCCCCCGGCCCCCCGGGCCCCCCGGAAAGUAUUAUGUUACGCCGUUCGGAUCUGCAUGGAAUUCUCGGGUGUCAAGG` gave a log2 enrichment of 0.0708.
`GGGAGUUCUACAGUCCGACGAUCGUCCUGUGCUACACAUCGUAUGUACCGAAUCGGUUUUUUUGGAAAAAAAGGAAAAAGGAAAGUAUUAUGUUACGCCGUUCGGAUCUGCACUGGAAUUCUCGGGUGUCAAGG` gave a log2 enrichment of -2.15.
With `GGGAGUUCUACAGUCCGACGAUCCCUGUGCUACACAUCGUAUGUACCGAAUCGGGGUUUUUUUGGGGAAAAAAAGGGGUGGGGAAAGUAUUAUGUUACGCCGUUCGGAUCUGCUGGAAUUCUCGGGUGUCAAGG` the log2 enrichment was 0.107.
`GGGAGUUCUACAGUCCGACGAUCACCAUGCAGGUGGGCAUCUUUGGGAAGUGGGGCAAGGGGGGGAUAGGGAGGGGGAAAACACUUUGGGAACAGGUGGUCCCAGGUCGUUUCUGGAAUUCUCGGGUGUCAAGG` gave a log2 enrichment of 0.366.
`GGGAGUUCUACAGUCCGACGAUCUGGCCCUGGUGGCAUGCGGGGAGGAAGAGGUUGCCUCAUGGAUCGUGGUGGUCCCGGUGGAAUGUUCAGAGGUGGCCGUGGUGGAGACAGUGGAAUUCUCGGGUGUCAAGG` has a log2 enrichment of 0.343.
With `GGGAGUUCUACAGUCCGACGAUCCUCAAGUCCUGUGCUACACAUCGUAUGUACCGAAUCGGUUUUUGGUGGUUUGGAAAGUAUUAUGUUACGCCGUUCGGAUCUGCACUUCCAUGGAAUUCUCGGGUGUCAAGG` the log2 enrichment was -0.0898.

Some of these lines once more (block 3):
For `ACTAGCAA`, the E-score was 0.00788.
`ACCCATCT` has an E-score of -0.0565.
The E-score of `GCACGAAA` is reported as 0.00305.
`CCAGCCTC` gave an E-score of -0.0994.
`ATCACAAC` has an E-score of 0.0503.
`CGGAACTA` gave an E-score of 0.166.
With `ATGCGCAT` the E-score was 0.183.
`GGCTTGGA` gave an E-score of -0.233.
`CCGTCAAA` has an E-score of -0.0977.
`AACGACAA` has an E-score of 0.164.
